Assay results gathered from unrelated publications.
Values joined by “and” are separate records of one study, mostly repeats; a detail may differ. Numbers after ± are the reported error.
UCHL1: Ubiquitin carboxyl-terminal hydrolase isozyme L1 (UCHL1, Homo sapiens, UniProt P09936)
Voltage-dependent P/Q-type calcium channel subunit alpha-1A: Voltage-dependent P/Q-type calcium channel subunit alpha-1A (Homo sapiens, UniProt O00555)
ADRA2C: Alpha-2C adrenergic receptor (ADRA2C, Homo sapiens, UniProt P18825)
TOP2A: DNA topoisomerase 2-alpha (TOP2A, Homo sapiens, UniProt P11388)
T1: G-quadruplex DNA (Homo sapiens); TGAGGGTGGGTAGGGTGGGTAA

`CCCCCCCC(=O)c1cc(OC)c(OC)c(OC)c1CC(=O)OCC` has an activation of 1.17 fold (Vitamin D3 receptor (VDR, Homo sapiens, UniProt P11473); reporter gene, Gal4 hybrid reporter; 10 µM; baseline: vehicle).
Under “log2 fold change”, `CCN1CCC[C@H]1CNC(=O)c1c(O)c(Cl)cc(Cl)c1OC` is recorded as -0.096 (GPR3 (Homo sapiens, UniProt P46089); β-arrestin recruitment, TANGO luminescence; concentration not given; baseline: basal luminescence).
Under “log fold enrichment”, `COCCC(=O)N1CCC(Oc2ccccc2)C1` (stereo not shown) is recorded as 0.279 (Leucine-rich repeat serine/threonine-protein kinase 2, WD40 domain (LRRK2, Homo sapiens, UniProt Q5S007); binding, affinity selection mass spectrometry; baseline: other proteins in batch).
`Nc1ncnc2c1ncn2[C@@H]1O[C@H](COP(=O)(O)OP(=O)(O)OP(=O)(O)O)[C@@H](O)[C@H]1O` gave a Hill slope of 1.66 (P2X purinoceptor 1 (P2RX1, Homo sapiens, UniProt P51575, K136E); ion current, agonist, two-electrode voltage clamp; Xenopus oocytes; concentration-response curve).
For `CCS(=O)(=O)c1nc2ccc(NC(=O)Nc3cccc(C#N)c3)cc2s1`, the labelling was 12.8% (UCHL1; covalent, intact protein LC-MS; 12.5 µM).
For `COc1cc(C)[nH]c(=O)c1CN1CCc2c(Cl)cc([C@H](OC)C3COC3)c(Cl)c2C1=O`, the residence time was 10.9 h (EZH2 (Homo sapiens, UniProt Q15910); binding; basal PRC2 without H3K27me3 peptide).
With `Nc1ncnc2c1ncn2[C@@H]1O[C@H](COP(=O)(O)CP(=O)(O)OP(=O)(O)O)[C@@H](O)[C@H]1O` the specific binding was 3140 CCPM and 2490 CCPM (P2X purinoceptor 1 (P2RX1, Homo sapiens, UniProt P51575, F188L); saturation binding; HEK293; 25 nM).
With `Cc1ccc(C2(F)CC2N)cc1` (stereo not shown) the kcat was 0.12 ± 0.01 s⁻¹ (tyramine oxidase (Arthrobacter sp.); substrate, Lineweaver-Burk plot).
`CN(C)CCCN1c2ccccc2Sc2ccc(Cl)cc21` has an inhibition of 96% (Voltage-dependent P/Q-type calcium channel subunit alpha-1A; ion current, antagonist; HEK293; 30 µM).
`COc1ccc(NC(=O)C(C#N)=Cc2cccc(Cl)c2Cl)cc1` gave a labelling of 29.9% (UCHL1; covalent, intact protein LC-MS; 12.5 µM).
`O=C(O)c1cccc(N2C(=O)C(O)=C(C(=O)c3ccccc3)C2c2ccc([N+](=O)[O-])cc2)c1` (stereo not shown) has a top effect of 1.2 ± 0.1 (ESR1/YWHAZ, with 14-3-3 zeta (Homo sapiens, UniProt P03372+P63104); 14-3-3ζ/ERα peptide binding, stabilizer, fluorescence polarization; 200 µM, unit not given; baseline: DMSO).
For `C#CCCC1(CC[C@H](NC(=O)NCCCCCCNC(=O)NCCNC(=O)COc2cccc([C@@H](CCc3ccc(OC)c(OC)c3)OC(=O)[C@@H]3CCCCN3C(=O)C(=O)C(C)(C)CC)c2)C(N)=O)N=N1.O=C(O)C(F)(F)F`, “probe labeling fluorescence” read 4420 a.u. (FKBP1A (Homo sapiens, UniProt P62942); photoaffinity labeling, in-gel fluorescence, item: Alexa Fluor 647 click label; 0.08 µM, UV irradiation 365 nm; higher = more labeling).
`[O-][S+]1CCCCS1` (stereo not shown) has a target engagement of 43.7 % cross-linked dimer (SOD1 (Homo sapiens, UniProt P00441, G94A); intact protein LC-MS; SOD1 G93A transgenic mice, whole blood; oral, 150 mg/kg, 24 h, mean of two mice).
The current density of `O=C(O)c1ccc([N+](=O)[O-])cc1` is reported as -33.3 pA/pF and -57.3 pA/pF and -101 pA/pF and -80.1 pA/pF and -76.9 pA/pF and -55 pA/pF and -34.2 pA/pF (BEST1 (Homo sapiens, UniProt O76090); whole-cell patch clamp; HEK293 transiently expressing channel; concentration not given, membrane potential -80 mV).
The selectivity ratio of `Cc1cc(Oc2ncccc2CN2CCN(c3ccc(Br)cc3)CC2)ccc1-c1c(C)c(=O)[nH]c(=O)n1C` is reported as 11 (ADRA2C; binding, radioligand binding; together with: [3H]rauwolscine; baseline: Ki alpha2A over Ki alpha2C).
Under “normalised MST signal”, `NCCCS(=O)(=O)O` is recorded as -0.00198 (SLC6A6 (Homo sapiens, UniProt P31641, G62A); binding, microscale thermophoresis; 1 mM, room temperature, together with: 50 nM labelled protein; higher = more binding).
`c1cc(-c2nc(N3CCNCC3)c3ccccc3n2)nc(-c2nc(N3CCNCC3)c3ccccc3n2)c1` has an IC50 of 0.589 µM (T1, G-quadruplex DNA (Homo sapiens); thiazole orange displacement, competitor, FID; 0.25 µM DNA, pH 7.4, 25 °C, KCl 100 mM, together with: thiazole orange 0.50 µM).
The EC90 of `COC(=O)C1=C(C)NC(C)=C(C(=O)OC(C)(C)CN(C)CCC(c2ccccc2)c2ccccc2)C1c1cccc([N+](=O)[O-])c1` (stereo not shown) is reported as 6.02 µM (Toxoplasma gondii; parasite growth; HFF, bradyzoite, glutamine-induced).
`Cc1ccc(-n2nc(Br)cc2C(=O)NCc2nocc2C(=O)O)cc1` gave a remaining activity of 100% (malate dehydrogenase; enzyme activity, inhibitor; 200 µM, pH 7.0, 1% DMSO, aggregation counter-screen).
`C=CC(=O)N1CCC[C@@H](n2nc(-c3ccc(Oc4ccccc4)cc3)c3c(N)ncnc32)C1` has a remaining activity of 110% (PDGFRB (Homo sapiens, UniProt P09619); 0.1 µM).
The inhibition of `CC(=O)Oc1ccccc1C(=O)O` is reported as 8% (Voltage-dependent P/Q-type calcium channel subunit alpha-1A; ion current, antagonist; HEK293; 3 µM).
For `Cc1nc(CSc2nc(SCc3ccc(C(C)C)cc3)nc(=O)[nH]2)cs1`, “mean decatenated DNA” read 0.12% (TOP2B (Homo sapiens, UniProt Q02880); decatenation; 125 µM).
For `C=CC(=O)N1CCC(COCC(=O)N2CCN(c3nc(-c4cnc(N)nc4C(F)F)nc(N4CCOC[C@@H]4C)n3)CC2)CC1`, the remaining binding was 95% (PTK2B (Homo sapiens, UniProt Q14289); KINOMEscan; 1 µM).
`O=c1nc(SCc2cc(F)cc(C(F)(F)F)c2)nc(SCc2ccc3nc(Cl)ccc3c2)[nH]1` gave a decatenated DNA of 0.2% (TOP2A; decatenation; 31.25 µM, replicate 2).
With `CC[C@@H]1[C@H](F)C(=O)N[C@@H]1COc1nccc2cc(C(N)=O)c(OC)cc12` the inhibition was -4.2% (ATR (Homo sapiens, UniProt Q13535); ATP-site probe binding, ActivX profiling; THP-1 cell lysate; 0.2 mM).
The EC90 of `CC(=O)OC[C@H]1O[C@@H]([S-])[C@H](OC(C)=O)[C@@H](OC(C)=O)[C@@H]1OC(C)=O.CCP(CC)CC.[Au+]` is reported as 1.69 µM (Toxoplasma gondii; parasite growth; HFF, bradyzoite, alkaline-induced).
The labelling of `C=CCNC(=O)C(C#N)=Cc1ccc(C#N)cc1` is reported as 19.3% (UCHL1; covalent, intact protein LC-MS; 12.5 µM).
With `C[C@H](CCC(C)(C)O)[C@H]1CC[C@H]2[C@@H]3CC=C4C[C@@](C)(O)CC[C@]4(C)[C@H]3CC[C@]12C` the current response was 121 ± 2.8% (Glutamate NMDA receptor; GRIN1/GRIN2B (GRIN1/GRIN2B, Homo sapiens, UniProt Q05586+Q13224, A549C); positive allosteric modulator, two-electrode voltage clamp; Xenopus oocytes expressing GluN2B-A549C; 10 µM, 0.02% cremophor, together with: 100 µM glutamate and glycine; baseline: without compound).
`CN(C)CCOC1=Cc2ccccc2Sc2ccc(Cl)cc21` has an inhibition of 35% (Voltage-dependent P/Q-type calcium channel subunit alpha-1A; ion current, antagonist; HEK293; 3 µM).
`O=c1nc(SCc2cc(F)cc(C(F)(F)F)c2)nc(SCc2ccc3sccc3c2)[nH]1`: “ATP hydrolysis rate” 0.342 µM/min and 0.633 µM/min (TOP2A; ATPase activity; 3.9 µM, together with: ATP 0.05 mM).
`Cc1cc(Oc2ncccc2CN2CCN(c3ccc(C(F)(F)F)cn3)CC2)ccc1-c1c(C)c(=O)[nH]c(=O)n1C` has a selectivity ratio of 11 (ADRA2C; binding, radioligand binding; together with: [3H]rauwolscine; baseline: Ki alpha2B over Ki alpha2C).
For `C=CC(=O)N1CCC(C(=O)NCC(=O)N2CCN(c3nc(-c4cnc(N)nc4C(F)F)nc(N4CCOCC4)n3)CC2)CC1`, the remaining binding was 95% (CDK13 (Homo sapiens, UniProt Q14004); KINOMEscan; 1 µM).
`C#CCOc1ccc(C=C2C(=O)ON=C2C)cc1OCC` gave a labelling of 21.9% (UCHL1; covalent, intact protein LC-MS; 12.5 µM).
`O=S(=O)(Nc1ccc(OC2CCOC2)nc1)c1cccc(Cl)c1O` (stereo not shown) has a remaining activity of 102% (malate dehydrogenase; enzyme activity, inhibitor; 200 µM, pH 7.0, 1% DMSO, aggregation counter-screen).
The labelling of `N#CC(=Cc1csnn1)C(=O)Nc1ccc(Oc2ccccc2)cc1` is reported as 41.2% (UCHL1; covalent, intact protein LC-MS; 12.5 µM).
`Cc1cc(Oc2ncccc2CN2CCN(CCc3ccccc3)CC2)ccc1-c1c(C)c(=O)[nH]c(=O)n1C` has a selectivity ratio of 15 (ADRA2C; binding, radioligand binding; together with: [3H]rauwolscine; baseline: Ki alpha2B over Ki alpha2C).
With `N[C@@H](CCC(=O)O)C(=O)O` the mean current was 4.1 µA (glc-2 (Caenorhabditis elegans, UniProt Q17328, R340A/R342A/R351A/R352A/R353A/S341A/T283S); two-electrode voltage clamp; Xenopus laevis oocytes).
The labelling of `O=C1CCCc2cc(C(=O)CCl)ccc2N1` is reported as 29.8% (UCHL1; covalent, intact protein LC-MS; 12.5 µM).
`O=C1CCCN1Cc1ccc(NS(=O)(=O)c2cccc(Cl)c2O)cc1` has a remaining activity of 92% (malate dehydrogenase; enzyme activity, inhibitor; 200 µM, pH 7.0, 1% DMSO, aggregation counter-screen).
`COc1ccc2c(c1)c(CC(=O)O)c(C)n2C(=O)c1ccc(Cl)cc1` has an inhibition of 1% (Voltage-dependent P/Q-type calcium channel subunit alpha-1A; ion current, antagonist; HEK293; 10 µM).
`CC1(C)CC(=O)C(=CNc2ccc3cn[nH]c3c2)C(=O)C1` gave a maximal inhibition of 17% (Glycogen synthase kinase-3 beta, with Nav1.6 (GSK3B, Homo sapiens, UniProt P49841); protein complex assembly, split-luciferase complementation; HEK293 with Nav1.6 co-transfected; 0.5 to 150 µM).
`Cc1ccc(CNC(=O)Cn2cc(CSc3nc4ccccc4[nH]3)nn2)cc1` — result for “geometric mean inhibition”: 53% (DNA topoisomerase I (calf thymus); enzyme activity, inhibitor; Caco-2; 50, 100, 500 ppm, 30 min, 37 °C).
With `CC(Cl)C(=O)N1CCN(C(C)c2cccc(C#N)c2)CC1` (stereo not shown) the labelling was 12.6% (UCHL1; covalent, intact protein LC-MS; 12.5 µM).
`Cn1cc(-c2ccc(-c3cncc(Cl)c3N3CCC4(CCNC4=O)CC3)cc2)cn1` — result for “log2 fold change”: -2.25 (COLO 205; gene expression, microarray, item: GNAZ mRNA; concentration not given, 6 h; baseline: untreated cells).
`NS(=O)(=O)c1cccc2cc(NC(=O)CCl)ccc12` has a labelling of 11.5% (UCHL1; covalent, intact protein LC-MS; 12.5 µM).
For `Cc1cc(-c2ccnc3[nH]cc(F)c23)cc(F)c1[C@@]1(O)[C@H](C)CN(C2CCS(=O)(=O)CC2)C[C@@H]1C`, “probe labelling inhibition” read 91.3% (LATS1 (Homo sapiens, UniProt O95835); ATP/ADP probe binding, KiNativ; HEK293T lysate; 10 µM, Lys1 peptide ALYATKTLR).

Repeated from above:
For `COc1cc(C)[nH]c(=O)c1CN1CCc2c(Cl)cc([C@H](OC)C3COC3)c(Cl)c2C1=O`, the residence time was 10.9 h (EZH2 (Homo sapiens, UniProt Q15910); binding; basal PRC2 without H3K27me3 peptide).
With `Nc1ncnc2c1ncn2[C@@H]1O[C@H](COP(=O)(O)CP(=O)(O)OP(=O)(O)O)[C@@H](O)[C@H]1O` the specific binding was 3140 CCPM and 2490 CCPM (P2X purinoceptor 1 (P2RX1, Homo sapiens, UniProt P51575, F188L); saturation binding; HEK293; 25 nM).
With `Cc1ccc(C2(F)CC2N)cc1` (stereo not shown) the kcat was 0.12 ± 0.01 s⁻¹ (tyramine oxidase (Arthrobacter sp.); substrate, Lineweaver-Burk plot).
`CN(C)CCCN1c2ccccc2Sc2ccc(Cl)cc21` has an inhibition of 96% (Voltage-dependent P/Q-type calcium channel subunit alpha-1A; ion current, antagonist; HEK293; 30 µM).
